Literature values, collected from citations in different studies.
Compare with care: the assays were run in different laboratories. ± marks the error that the study gave.
UniProt Q9Y4K4, sequence (whole entry, looked up): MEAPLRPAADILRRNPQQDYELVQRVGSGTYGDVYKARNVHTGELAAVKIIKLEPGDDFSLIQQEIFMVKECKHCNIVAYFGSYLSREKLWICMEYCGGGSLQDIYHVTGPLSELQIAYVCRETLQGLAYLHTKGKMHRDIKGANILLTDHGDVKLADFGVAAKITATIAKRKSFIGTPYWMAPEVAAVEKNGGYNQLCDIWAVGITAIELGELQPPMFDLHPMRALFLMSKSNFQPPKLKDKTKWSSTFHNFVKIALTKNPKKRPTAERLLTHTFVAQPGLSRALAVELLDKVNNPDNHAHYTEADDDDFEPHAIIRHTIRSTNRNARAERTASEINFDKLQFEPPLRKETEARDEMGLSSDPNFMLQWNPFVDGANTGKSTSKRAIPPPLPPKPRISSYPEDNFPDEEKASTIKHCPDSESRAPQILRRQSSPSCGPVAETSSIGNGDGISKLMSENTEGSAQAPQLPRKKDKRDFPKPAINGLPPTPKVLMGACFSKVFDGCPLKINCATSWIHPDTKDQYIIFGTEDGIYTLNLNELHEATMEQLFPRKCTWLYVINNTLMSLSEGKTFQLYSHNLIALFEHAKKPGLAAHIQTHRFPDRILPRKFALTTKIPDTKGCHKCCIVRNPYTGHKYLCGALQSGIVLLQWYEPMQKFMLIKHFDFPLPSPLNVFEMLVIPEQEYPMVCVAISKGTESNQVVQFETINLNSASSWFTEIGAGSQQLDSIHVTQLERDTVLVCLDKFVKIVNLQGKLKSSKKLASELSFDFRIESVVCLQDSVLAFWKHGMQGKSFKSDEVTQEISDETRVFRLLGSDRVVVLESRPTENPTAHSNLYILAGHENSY

CCN(CC)CCCCNc1ncc2cc(-c3cc(OC)cc(OC)c3)c(NC(=O)NC(C)(C)C)nc2n1 has an IC50 of 17.6 µM (PDGFRβ; inhibitor).
CCCC(C)C(=O)O (stereo not shown) has an EC10 of 1030 µM (histone deacetylase; enzyme activity, inhibitor; mouse embryonic stem cells; unbound medium concentration).
CNC(C)C1CCC(N)C(OC2C(N)CC(N)C(OC3OCC(C)(O)C(NC)C3O)C2O)O1 (stereo not shown) gave an MIC of > 8 µg/mL (Pseudomonas aeruginosa; clinical isolate RKI-No_46/14).
The EC50 of COc1ccccc1Oc1cccc(CN2CCC(O)(c3ccccc3C(=O)O)CC2)c1 is reported as 0.051 µM (human CCR8 F112A mutant (TM3); IP accumulation, agonist).
With c1cc(-c2cnn3cc(-c4ccc(OCCN5CCCCC5)cc4)cnc23)ccn1 the inhibition was 77% (CSNK1D; kinase activity, inhibitor; 0.5 µM).
CCCCC(CC)C(=O)O (stereo not shown) gave an EC10 of 119 µM (HDAC; enzyme activity, inhibitor; day 10, unbound medium concentration).
With O=C(Nc1nc2ccccc2[nH]1)c1ccccc1 the response was 214% (amyloid precursor protein; 2 µM, PubChem AID 1276).
[Br-].[K+] has a Km of 9.4 mM (anion exchanger, human; substrate; neutrophils).
COc1ccccc1Oc1cccc(CN2CCC3(CC2)C(=O)NCN3CCc2ccccc2)c1 gave an EC50 of 0.018 µM (human CCR8 L168D mutant (TM4); IP accumulation, agonist).
With Cc1nc2c(c(O)c1Cl)-c1ccc(Oc3cccc(C(F)(F)F)c3)cc1C2=O the IC50 was 0.04 µM (Plasmodium falciparum; whole cell extended time; 3D7; 72 h).
CC1(C)S[C@@H]2[C@H](NC(=O)[C@H](N)c3ccccc3)C(=O)N2[C@H]1C(=O)O has an MIC of > 16 µg/mL (Pseudomonas aeruginosa; clinical isolate RKI-No_67/14).
The inhibition of Oc1c2ccccc2c2c3c(cccc13)N=N2 is reported as 87% (CSNK1D; kinase activity, inhibitor; 0.5 µM).
CCN1CCN(c2cc(N3CCN(CC)CC3)nc(NCCNc3ccnc4cc(Cl)ccc34)n2)CC1: activity “inactive” (NR4A1 (Nur77); cellular; concentration not given).
Cc1cccc(-c2[nH]c(CNc3ccccc3F)nc2-c2ccc3ncnn3c2)n1: inhibition “no inhibition” (OAT3; transport activity, inhibitor; up to 100 µM).
For O=C1NC(=O)c2c1c1c3ccccc3[nH]c1n1cncc21, the inhibition was 85% (CSNK1D; kinase activity, inhibitor; concentration not given).
The Vmax of Nc1ncn([C@@H]2O[C@H](CO)[C@@H](O)[C@H]2O)c(=O)n1 is reported as 38 U/mg (cytidine deaminase (human); substrate; concentration not given, 37 °C).
With Cc1cc(NC(=O)c2cccc(NC(=O)/C=C/CN(C)C)c2)ccc1Nc1nccc(-c2cccnc2)n1 the remaining activity was 0% (JNK2; 1 µM; baseline: control).
CC(C)(O/N=C(\C(=O)N[C@@H]1C(=O)N2C(C(=O)[O-])=C(C[N+]3(CCNC(=O)c4ccc(O)c(O)c4Cl)CCCC3)CS[C@H]12)c1csc(N)n1)C(=O)O gave a kcat of 12 s⁻¹ (L1; hydrolysis by enzyme, substrate).
CCC(CC)C(=O)O has an EC10 of 4500 µM (HDAC; enzyme activity, inhibitor; day 4, unbound medium concentration).
COc1ccccc1Oc1cccc(CN2CCC(NC(=O)C3CC(=O)Nc4ccccc43)CC2)c1 (stereo not shown) has an EC50 of 0.019 µM (human CCR8 F123A mutant (TM3); IP accumulation, agonist).
CCCCCC(CCC)C(=O)O (stereo not shown) gave an EC10 of 17 µM (HDAC; enzyme activity, inhibitor; day 4, unbound medium concentration).
For N=C(N)NC(=N)NCCc1ccccc1, the Ki was 170 ± 30 µM (Escherichia coli dihydrofolate reductase).
With COc1ccccc1Oc1cccc(CN2CCC(NC(=O)C(CCN3CCCC3)c3ccccc3)CC2)c1 (stereo not shown) the EC50 was 0.00022 µM (human CCR8 W194A mutant (TM5); IP accumulation, agonist).
Nc1cc(C(F)(F)F)c(-c2nc(N3CCOCC3)nc(N3CCOCC3)n2)cn1 gave a remaining activity of 89% (Mitogen-activated protein kinase kinase kinase kinase 5 (MAP4K5, Homo sapiens, UniProt Q9Y4K4); enzyme activity; 10 µM; baseline: untreated).
The EC90 of CC(C)(C)c1cc(C(C)(C)C)c(NC(=O)c2c[nH]c3ccccc3c2=O)cc1O is reported as 0.7 µM (CFTR; potentiator).
O=C(c1ccc(Cl)cc1)N(Cc1ccccc1)C1CCCCC1: binding “binds” (RAGE; RAGE-transfected cells; concentration not given).
With C[S+]([O-])c1ccc(-c2nc(-c3ccc(F)cc3)c(-c3ccncc3)[nH]2)cc1 (stereo not shown) the inhibition was 4% (CSNK1G1; kinase activity, inhibitor; 0.5 µM).
For CO[C@H]1C[C@@H]2CC[C@@H](C)[C@@](O)(O2)C(=O)C(=O)N2CCCC[C@H]2C(=O)O[C@H]([C@H](C)C[C@@H]2CC[C@@H](O)[C@H](OC)C2)CC(=O)[C@H](C)/C=C(\C)[C@@H](O)[C@@H](OC)C(=O)[C@H](C)C[C@H](C)/C=C/C=C/C=C/1C, “cooperativity factor alpha” read 2170 (FKBP12 and mTOR FRB domain; ternary complex binding).
With CNS(=O)(=O)Nc1nccc(Cc2c(C)c3ccc(Oc4ncccn4)cc3oc2=O)c1F the IC50 was 0.019 µM (BRAF; kinase activity, inhibitor).
Nc1nc(=O)n([C@H]2C[C@H](O)[C@@H](CO)O2)cc1I has a Vmax of 91.1 U/mg (cytidine deaminase (human); substrate; concentration not given, 37 °C).
The EC50 of CCNS(=O)(=O)c1ccc(OC)cc1C1(O)CCN(Cc2cccc(Oc3ccccc3OC)c2)CC1 is reported as 0.007 µM (human CCR8 W194A mutant (TM5); IP accumulation, agonist).
CC(C)[C@H](CO)Nc1nc(Nc2cc(N)cc(Cl)c2)c2ncn(C(C)C)c2n1 gave an inhibition of 34% (CSNK1D; kinase activity, inhibitor; 0.5 µM).
The GI50 of C[C@H]1COCCN1c1nc(-c2cnc(N)cc2C(F)F)nc(N2CCOCC2)n1 is reported as 0.193 µM (SR).
Nc1nc(Nc2ccc(S(N)(=O)=O)cc2)n(C(=S)Nc2c(F)cccc2F)n1 gave an inhibition of 16% (CSNK1D; kinase activity, inhibitor; 0.5 µM).
CC(C)Oc1ccc(-c2c[nH]cc2CN(C)CCN)cc1 has a selectivity ratio of 6 fold (PRMT6; enzyme activity, inhibitor; baseline: PRMT1 IC50 over PRMT6 IC50).
CCCC(CCC)C(=O)O has an EC10 of 34 µM (HDAC; enzyme activity, inhibitor; day 4, unbound medium concentration).
Under “suppression duration after washout”, Cc1ncsc1-c1ccc([C@H](C)NC(=O)[C@@H]2C[C@@H](O)CN2C(=O)[C@@H](NC(=O)CCCCCCCCCCNC[C@@H](C(=O)N2CCN(c3ncnc4c3[C@H](C)C[C@H]4O)CC2)c2ccc(Cl)cc2)C(C)(C)C)cc1 is recorded as 3 days (Akt; inhibitor; concentration not given).
With NC(=O)C1=CN([C@@H]2O[C@H](COP(=O)(O)OP(=O)(O)OC[C@H]3O[C@@H](n4cnc5c(N)ncnc54)[C@H](O)[C@@H]3O)[C@@H](O)[C@H]2O)C=CC1 the Km was 0.11 mM (ADH1 H48S Saccharomyces cerevisiae; enzyme activity, substrate; pH 7.3, 30 °C).
Nc1ccc(C(=O)NCC(=O)O)cc1 has a Km of 50.3 mM (anion exchanger, human; substrate; neutrophils).
With Cl.Nc1nccc(-c2c(-c3ccc(F)cc3)ncn2C2CCNCC2)n1 the inhibition was 99% (CSNK1E; kinase activity, inhibitor; 0.5 µM).
With C=CCC(CCC)C(=O)O (stereo not shown) the EC10 was 253 µM (HDAC; enzyme activity, inhibitor; day 4, unbound medium concentration).
The Vmax of Cc1ccc(C)c(OCCCC(C)(C)C(=O)O)c1 is reported as 510 pmol/min/mg protein (UGT2B7; O-glucuronidation, substrate).
Cc1[nH]c(C)c(-c2ccc(CCc3ccc(C(F)(F)F)cc3)nc2)c(=O)c1Cl gave an IC50 of 0.09 µM (Plasmodium falciparum; whole cell extended time; 3D7; 72 h).

Repeated from above:
The Vmax of Cc1ccc(C)c(OCCCC(C)(C)C(=O)O)c1 is reported as 510 pmol/min/mg protein (UGT2B7; O-glucuronidation, substrate).
With C=CCC(CCC)C(=O)O (stereo not shown) the EC10 was 253 µM (HDAC; enzyme activity, inhibitor; day 4, unbound medium concentration).
With NC(=O)C1=CN([C@@H]2O[C@H](COP(=O)(O)OP(=O)(O)OC[C@H]3O[C@@H](n4cnc5c(N)ncnc54)[C@H](O)[C@@H]3O)[C@@H](O)[C@H]2O)C=CC1 the Km was 0.11 mM (ADH1 H48S Saccharomyces cerevisiae; enzyme activity, substrate; pH 7.3, 30 °C).
With c1cc(-c2cnn3cc(-c4ccc(OCCN5CCCCC5)cc4)cnc23)ccn1 the inhibition was 77% (CSNK1D; kinase activity, inhibitor; 0.5 µM).
Cc1cccc(-c2[nH]c(CNc3ccccc3F)nc2-c2ccc3ncnn3c2)n1: inhibition “no inhibition” (OAT3; transport activity, inhibitor; up to 100 µM).
With COc1ccccc1Oc1cccc(CN2CCC(NC(=O)C(CCN3CCCC3)c3ccccc3)CC2)c1 (stereo not shown) the EC50 was 0.00022 µM (human CCR8 W194A mutant (TM5); IP accumulation, agonist).
With O=C(Nc1nc2ccccc2[nH]1)c1ccccc1 the response was 214% (amyloid precursor protein; 2 µM, PubChem AID 1276).
